Experimental data of several laboratories.
Compare with care: the assays were run in different laboratories. Numbers after ± are the reported error. In brackets after ≈: the same amount, converted by molar mass.
Cell line: Vero

| SMILES | assay | setting | scale | endpoint | result |
| --- | --- | --- | --- | --- | --- |
| CCCCCCC#Cc1cncc(-c2nnc(SCc3ccc(Cl)cc3)n2C2CC2)c1 |  |  | baseline: Vero CC50 over Mtb IC50 | selectivity index | 4.8 |
| O=C(NC1CCCCCCC1)c1cc(-c2ccc(F)nc2F)c[nH]1 |  | 48 h |  | IC50 | > 64 µg/mL |
| C/C=C1\CN(C)[C@H]2C[C@@]3(C(=O)N(OC)c4ccccc43)[C@H]3C[C@@H]1[C@@H]2CO3 | CCK-8 | up to 100 µM, 24 h |  | viability | no effect |
| CCCCCCC#Cc1cncc(-c2nnc(SCc3ccc([N+](=O)[O-])o3)n2C2CC2)c1 |  |  | baseline: Vero CC50 over Mtb IC50 | selectivity index | 165 |
| O=C(NC12CC3CC(CC(C3)C1)C2)c1cc(-c2ccc(F)nc2F)c[nH]1 |  | 48 h |  | IC50 | > 64 µg/mL |
| C=C[C@]12CN(C)[C@@H]3[C@H]4CO[C@H](C[C@H]41)[C@]1(C(=O)Nc4ccccc41)[C@@H]32 | CCK-8 | up to 100 µM, 24 h |  | viability | no effect |
| N.N.[Cl][Pt][Cl] | MTT | 100 µM, 24 h |  | growth reduction | 7.13 ± 0.54% |
| O=C(NC1CCCCCCC1)c1cc(-c2ccc(Cl)cc2Cl)c[nH]1 |  | 48 h |  | IC50 | 31.8 µg/mL (≈ 87.1 µM) |
| CCCCCCC#Cc1cncc(-c2nnc(SCc3ccc(C#N)cc3)n2C)c1 |  |  | baseline: Vero CC50 over Mtb IC50 | selectivity index | > 3.7 |
